{"data": "Results gathered from unrelated publications", "note": "Numbered parts are unrelated; each lists some results of a single study. Values joined by “and” are separate records of one study, mostly repeats; a detail may differ.", "sequence of UniProt Q8NFD2 (whole entry, looked up)": "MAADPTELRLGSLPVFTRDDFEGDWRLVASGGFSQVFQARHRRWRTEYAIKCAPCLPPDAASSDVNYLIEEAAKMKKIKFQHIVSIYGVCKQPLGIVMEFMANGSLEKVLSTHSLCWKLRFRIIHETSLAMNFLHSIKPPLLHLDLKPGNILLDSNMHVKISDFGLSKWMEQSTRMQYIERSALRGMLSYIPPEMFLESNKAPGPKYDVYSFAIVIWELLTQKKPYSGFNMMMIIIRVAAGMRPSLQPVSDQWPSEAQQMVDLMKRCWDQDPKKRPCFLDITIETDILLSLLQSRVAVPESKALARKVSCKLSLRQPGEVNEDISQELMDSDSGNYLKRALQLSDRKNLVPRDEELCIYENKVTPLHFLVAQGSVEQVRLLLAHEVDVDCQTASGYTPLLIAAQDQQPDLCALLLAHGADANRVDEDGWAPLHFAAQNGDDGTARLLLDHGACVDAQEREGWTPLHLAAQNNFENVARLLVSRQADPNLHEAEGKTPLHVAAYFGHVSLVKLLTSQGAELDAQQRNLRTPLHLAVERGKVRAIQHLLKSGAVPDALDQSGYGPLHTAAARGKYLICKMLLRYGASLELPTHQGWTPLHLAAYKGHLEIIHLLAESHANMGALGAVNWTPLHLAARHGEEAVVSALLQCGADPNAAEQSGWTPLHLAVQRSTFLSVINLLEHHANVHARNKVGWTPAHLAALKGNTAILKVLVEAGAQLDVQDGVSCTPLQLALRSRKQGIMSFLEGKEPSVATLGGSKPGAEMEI", "sequence of UniProt P42336 (whole entry, unmodified, looked up)": "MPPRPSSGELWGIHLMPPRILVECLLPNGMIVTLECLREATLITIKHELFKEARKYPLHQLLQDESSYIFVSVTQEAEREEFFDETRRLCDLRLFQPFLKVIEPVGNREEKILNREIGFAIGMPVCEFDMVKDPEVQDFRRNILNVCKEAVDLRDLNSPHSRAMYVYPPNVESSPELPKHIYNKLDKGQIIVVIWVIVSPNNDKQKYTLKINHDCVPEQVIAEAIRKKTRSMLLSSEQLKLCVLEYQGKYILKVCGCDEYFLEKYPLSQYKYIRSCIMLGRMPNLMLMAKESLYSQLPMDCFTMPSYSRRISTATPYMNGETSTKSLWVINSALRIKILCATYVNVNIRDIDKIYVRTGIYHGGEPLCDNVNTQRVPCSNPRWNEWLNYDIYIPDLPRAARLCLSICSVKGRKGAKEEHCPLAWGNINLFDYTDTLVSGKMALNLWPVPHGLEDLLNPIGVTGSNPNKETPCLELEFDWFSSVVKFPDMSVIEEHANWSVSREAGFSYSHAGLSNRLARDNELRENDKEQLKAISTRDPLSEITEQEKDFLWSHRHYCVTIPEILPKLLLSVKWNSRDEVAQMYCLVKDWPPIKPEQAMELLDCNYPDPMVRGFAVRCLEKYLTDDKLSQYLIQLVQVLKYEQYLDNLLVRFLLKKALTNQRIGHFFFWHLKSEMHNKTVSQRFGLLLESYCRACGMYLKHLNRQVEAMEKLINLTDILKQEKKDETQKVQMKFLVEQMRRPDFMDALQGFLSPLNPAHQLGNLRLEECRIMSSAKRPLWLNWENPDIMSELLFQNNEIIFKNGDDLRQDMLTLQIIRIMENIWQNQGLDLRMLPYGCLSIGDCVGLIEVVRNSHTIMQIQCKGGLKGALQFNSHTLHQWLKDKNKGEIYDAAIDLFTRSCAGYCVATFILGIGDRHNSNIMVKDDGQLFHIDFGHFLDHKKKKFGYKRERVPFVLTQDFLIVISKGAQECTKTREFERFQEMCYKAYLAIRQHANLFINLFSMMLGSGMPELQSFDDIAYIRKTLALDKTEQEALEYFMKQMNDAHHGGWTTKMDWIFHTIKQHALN"}
{"data": "Series 1", "cell line": "mouse MPNST tumor cells", "method": "high-content nuclear imaging", "item": "cell number", "tested at": "10 µM", "time": "12 h", "notes": "mean of 2 replicates", "relative to": "plate mean", "reading": "higher = more cells"}
{"Compound": "Nc1ccc(S(=O)(=O)Nc2nccs2)cc1", "nuclei count": "0.938 z-score"}
{"Compound": "NC(=O)[C@@H](CCC(F)(F)F)N(Cc1ccc(-c2ncon2)cc1F)S(=O)(=O)c1ccc(Cl)cc1", "nuclei count": "2.18 z-score"}
{"Compound": "CN1Cc2c(C(=O)OC(C)(C)C)ncn2-c2ccsc2C1=O", "nuclei count": "-0.263 z-score"}
{"Compound": "Cc1cc2cc3c(C)cc(=O)oc3c(C)c2o1", "nuclei count": "0.945 z-score and -0.115 z-score"}
{"Compound": "CC(C)Oc1ccc(-c2cnc3c(-c4ccnc5ccccc45)cnn3c2)cc1", "nuclei count": "-0.745 z-score"}
{"Compound": "CN1C(=O)CC(c2ccccc2)C1=O (stereo not shown)", "nuclei count": "-0.246 z-score and 3.11 z-score"}
{"data": "Series 2", "cell line": "HuT78", "tested at": "2 µM", "time": "48 h", "relative to": "untreated"}
{"Structure (SMILES)": "Cc1c[nH]c2nc(Nc3ccc(N4CCN(C)CC4)c(F)c3)nc(-c3cccc(CC#N)c3)c12", "viability [%]": 42.9}
{"Structure (SMILES)": "Cn1cc(-c2ccc3ncc(Cc4ccc5ncccc5c4)n3n2)cn1", "viability [%]": 91.7}
{"Structure (SMILES)": "N#Cc1c(Oc2ccc(F)c(NC(=O)Cc3cccc(C(F)(F)F)c3)c2)ccc2nc(NC(=O)C3CC3)sc12", "viability [%]": 107}
{"Structure (SMILES)": "COc1ccc(COc2cc3oc(=O)c4cc(C(C)O)ccc4c3cc2OC)cc1 (stereo not shown)", "viability [%]": 92.5}
{"Structure (SMILES)": "CNC(=O)c1cc(Oc2ccc(NC(=O)Nc3ccc(Cl)c(C(F)(F)F)c3)c(F)c2)ccn1", "viability [%]": 110}
{"Structure (SMILES)": "Cc1ccc(NC(=O)c2ccc(CN3CCN(C)CC3)cc2)cc1Nc1nc(-c2cccnc2)cs1", "viability [%]": 138}
{"data": "Series 3", "target": "Serine/threonine-protein kinase Chk1 (CHEK1, Homo sapiens, UniProt O14757)", "effect on": "enzyme activity", "action": "inhibitor", "tested at": "0.5 µM", "relative to": "control", "sequence of UniProt O14757 (whole entry, looked up)": "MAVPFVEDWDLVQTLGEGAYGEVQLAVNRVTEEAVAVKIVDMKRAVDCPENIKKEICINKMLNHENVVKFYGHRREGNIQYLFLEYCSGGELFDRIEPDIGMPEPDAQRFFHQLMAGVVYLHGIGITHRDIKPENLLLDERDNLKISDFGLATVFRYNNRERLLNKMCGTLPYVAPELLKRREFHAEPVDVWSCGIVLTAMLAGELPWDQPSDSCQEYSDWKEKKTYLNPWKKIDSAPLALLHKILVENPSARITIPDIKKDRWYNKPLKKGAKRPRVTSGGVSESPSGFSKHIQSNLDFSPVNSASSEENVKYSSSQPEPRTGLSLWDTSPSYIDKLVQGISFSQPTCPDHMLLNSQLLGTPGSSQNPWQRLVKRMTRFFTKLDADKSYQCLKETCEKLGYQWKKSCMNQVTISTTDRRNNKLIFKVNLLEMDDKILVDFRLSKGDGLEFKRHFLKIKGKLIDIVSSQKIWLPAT"}
{"SMILES": "Cc1ccc(Nc2nccc(N(C)c3ccc4c(C)n(C)nc4c3)n2)cc1S(N)(=O)=O", "remaining activity [%]": 110}
{"SMILES": "COc1cc2ncnc(Nc3ccc(Oc4ccccc4)cc3)c2cc1OC", "remaining activity [%]": 97.4}
{"SMILES": "O=C(CCCc1ccc(-c2ccccc2F)cc1)Nc1ccc(O)cc1", "remaining activity [%]": 98.8}
{"SMILES": "O=C1NC(=O)C(c2cn(CCCn3ccnc3)c3ccccc23)=C1Nc1ccccc1", "remaining activity [%]": 76.6}
{"SMILES": "Cc1nc(-c2ccccc2)c(-c2ccncc2)o1", "remaining activity [%]": 106}
{"SMILES": "O=C(Nc1cccc(Nc2cc(Nc3cccc(C(F)(F)F)c3)ncn2)c1)C1CC1", "remaining activity [%]": 105}
{"SMILES": "N#CC(C#N)=C(N)/C(C#N)=C/c1ccc(O)cc1", "remaining activity [%]": 98.3}
{"SMILES": "Nc1ccc2ncnc(NCCc3ccc(Oc4ccccc4)cc3)c2c1", "remaining activity [%]": 101}
{"SMILES": "CN(C)c1ccc(C=C2C(=O)Nc3ccccc32)cc1", "remaining activity [%]": 98.2}
{"SMILES": "CC(C)[C@H](CO)Nc1nc(Nc2cc(N)cc(Cl)c2)c2ncn(C(C)C)c2n1", "remaining activity [%]": 96.2}
{"SMILES": "Cc1cccc(-c2[nH]c(C(C)(C)C)nc2-c2ccc3c(c2)OCO3)n1", "remaining activity [%]": 89.8}
{"SMILES": "Cn1c2ccccc2c2c3c(c4c5ccccc5n(CCC#N)c4c21)CNC3=O", "remaining activity [%]": 7.95}
{"SMILES": "Cn1sc(=O)n(Cc2ccccc2)c1=O", "remaining activity [%]": 103}
{"SMILES": "COc1ccc(C(=O)Nc2sc3c(c2C(N)=O)CCCC3)cc1OC", "remaining activity [%]": 112}
{"SMILES": "O=c1c2ccccc2[nH]c(=S)n1CCN1CCC(=C(c2ccc(F)cc2)c2ccc(F)cc2)CC1", "remaining activity [%]": 108}
{"data": "Series 4", "SMILES": "O=C1NC(c2ccccn2)Sc2ccccc21 (stereo not shown)", "effect on": "cell-free assay", "method": "competition with immobilised ligand", "tested at": "1 µM"}
{"target": "cAMP-dependent protein kinase catalytic subunit alpha (PRKACA, Homo sapiens, UniProt P17612)", "remaining binding [%]": 81}
{"target": "Serine/threonine-protein kinase Chk1 (CHEK1, Homo sapiens, UniProt O14757)", "remaining binding [%]": 88}
{"target": "Phosphatidylinositol 4,5-bisphosphate 3-kinase catalytic subunit alpha isoform (PIK3CA, Homo sapiens, UniProt P42336, E545A)", "remaining binding [%]": 97}
{"target": "Ankyrin repeat and protein kinase domain-containing protein 1 (ANKK1, Homo sapiens, UniProt Q8NFD2)", "remaining binding [%]": 77}
{"note": "A few entries again (series 1):"}
{"Compound": "Nc1ccc(S(=O)(=O)Nc2nccs2)cc1", "nuclei count": "0.938 z-score"}
{"Compound": "NC(=O)[C@@H](CCC(F)(F)F)N(Cc1ccc(-c2ncon2)cc1F)S(=O)(=O)c1ccc(Cl)cc1", "nuclei count": "2.18 z-score"}
{"Compound": "CN1Cc2c(C(=O)OC(C)(C)C)ncn2-c2ccsc2C1=O", "nuclei count": "-0.263 z-score"}
{"Compound": "Cc1cc2cc3c(C)cc(=O)oc3c(C)c2o1", "nuclei count": "0.945 z-score and -0.115 z-score"}
